Measurements of several laboratories.
“And” joins repeats or separate records; there may be more than shown. ± marks the error that the study gave.
LRP6 E1 domain: Low-density lipoprotein receptor-related protein 6, E1 domain (LRP6, Homo sapiens, UniProt O75581)
UniProt O75581, sequence (whole entry, looked up): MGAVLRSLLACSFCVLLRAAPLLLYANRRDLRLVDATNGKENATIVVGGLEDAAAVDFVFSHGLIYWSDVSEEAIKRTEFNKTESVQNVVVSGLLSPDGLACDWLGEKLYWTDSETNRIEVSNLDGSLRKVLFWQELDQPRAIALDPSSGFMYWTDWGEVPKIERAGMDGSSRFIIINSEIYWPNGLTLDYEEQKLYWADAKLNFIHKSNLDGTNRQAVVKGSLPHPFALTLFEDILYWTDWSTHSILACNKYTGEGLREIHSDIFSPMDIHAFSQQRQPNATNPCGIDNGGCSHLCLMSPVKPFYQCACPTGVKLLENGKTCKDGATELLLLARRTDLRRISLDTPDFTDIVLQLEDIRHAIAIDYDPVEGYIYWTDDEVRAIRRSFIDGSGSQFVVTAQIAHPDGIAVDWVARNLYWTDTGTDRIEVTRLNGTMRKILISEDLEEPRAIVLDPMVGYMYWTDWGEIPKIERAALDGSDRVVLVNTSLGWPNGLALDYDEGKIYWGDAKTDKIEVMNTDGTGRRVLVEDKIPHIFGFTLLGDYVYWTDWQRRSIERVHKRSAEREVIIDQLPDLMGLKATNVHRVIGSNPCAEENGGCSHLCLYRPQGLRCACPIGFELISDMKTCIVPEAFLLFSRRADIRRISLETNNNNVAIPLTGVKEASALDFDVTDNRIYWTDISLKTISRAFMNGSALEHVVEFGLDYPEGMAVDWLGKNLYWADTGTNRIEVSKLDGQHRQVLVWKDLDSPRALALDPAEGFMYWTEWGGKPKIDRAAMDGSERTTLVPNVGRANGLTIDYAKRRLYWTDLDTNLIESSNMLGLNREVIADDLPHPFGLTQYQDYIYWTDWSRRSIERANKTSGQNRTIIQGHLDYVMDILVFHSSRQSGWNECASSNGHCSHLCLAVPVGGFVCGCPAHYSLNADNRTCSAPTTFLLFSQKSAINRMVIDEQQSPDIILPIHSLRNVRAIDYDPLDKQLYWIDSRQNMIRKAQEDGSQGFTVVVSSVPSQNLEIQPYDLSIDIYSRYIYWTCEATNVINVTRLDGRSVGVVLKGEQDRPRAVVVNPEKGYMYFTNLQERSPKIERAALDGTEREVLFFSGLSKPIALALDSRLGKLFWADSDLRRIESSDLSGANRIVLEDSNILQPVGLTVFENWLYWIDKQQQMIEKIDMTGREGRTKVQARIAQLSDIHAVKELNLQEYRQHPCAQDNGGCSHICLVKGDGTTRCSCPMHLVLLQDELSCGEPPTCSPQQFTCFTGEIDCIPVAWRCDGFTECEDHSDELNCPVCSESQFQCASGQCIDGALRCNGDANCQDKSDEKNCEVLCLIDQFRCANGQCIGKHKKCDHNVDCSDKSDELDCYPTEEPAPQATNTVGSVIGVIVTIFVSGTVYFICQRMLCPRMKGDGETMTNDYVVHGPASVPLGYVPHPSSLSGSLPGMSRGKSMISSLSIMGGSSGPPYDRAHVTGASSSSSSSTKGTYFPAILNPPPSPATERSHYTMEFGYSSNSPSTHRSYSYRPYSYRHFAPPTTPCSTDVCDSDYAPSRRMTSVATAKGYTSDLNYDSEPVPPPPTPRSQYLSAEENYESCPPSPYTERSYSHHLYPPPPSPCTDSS
YWHAZ: 14-3-3 protein zeta/delta (YWHAZ, Homo sapiens, UniProt P63104)
UniProt P63104, sequence (whole entry, looked up): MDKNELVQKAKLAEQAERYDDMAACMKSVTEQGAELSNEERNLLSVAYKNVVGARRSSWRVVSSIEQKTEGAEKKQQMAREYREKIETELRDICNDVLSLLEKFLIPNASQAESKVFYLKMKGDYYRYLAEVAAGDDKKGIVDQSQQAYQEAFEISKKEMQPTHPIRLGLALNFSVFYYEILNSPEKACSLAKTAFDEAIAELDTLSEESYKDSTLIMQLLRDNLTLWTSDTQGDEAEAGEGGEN
F-box only protein 22: F-box only protein 22 (Homo sapiens, UniProt Q8NEZ5)
UniProt Q8NEZ5, sequence (whole entry, looked up): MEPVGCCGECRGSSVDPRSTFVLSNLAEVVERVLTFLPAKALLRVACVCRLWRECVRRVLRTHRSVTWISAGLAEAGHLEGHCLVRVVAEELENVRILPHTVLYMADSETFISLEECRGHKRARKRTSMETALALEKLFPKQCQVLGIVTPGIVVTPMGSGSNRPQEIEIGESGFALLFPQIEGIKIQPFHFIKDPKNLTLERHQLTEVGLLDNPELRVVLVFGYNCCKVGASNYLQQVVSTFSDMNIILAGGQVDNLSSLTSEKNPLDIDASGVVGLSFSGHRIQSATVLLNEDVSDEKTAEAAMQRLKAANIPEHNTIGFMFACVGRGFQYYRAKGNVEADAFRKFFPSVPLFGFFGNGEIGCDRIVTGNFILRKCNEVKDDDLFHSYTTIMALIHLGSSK
UniProt P97287, sequence (152-308, looked up): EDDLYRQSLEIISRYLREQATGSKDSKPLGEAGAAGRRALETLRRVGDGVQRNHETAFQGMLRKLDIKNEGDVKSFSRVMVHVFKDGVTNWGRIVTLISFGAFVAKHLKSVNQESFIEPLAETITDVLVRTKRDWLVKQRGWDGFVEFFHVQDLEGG
UniProt P41743, sequence (whole entry, looked up): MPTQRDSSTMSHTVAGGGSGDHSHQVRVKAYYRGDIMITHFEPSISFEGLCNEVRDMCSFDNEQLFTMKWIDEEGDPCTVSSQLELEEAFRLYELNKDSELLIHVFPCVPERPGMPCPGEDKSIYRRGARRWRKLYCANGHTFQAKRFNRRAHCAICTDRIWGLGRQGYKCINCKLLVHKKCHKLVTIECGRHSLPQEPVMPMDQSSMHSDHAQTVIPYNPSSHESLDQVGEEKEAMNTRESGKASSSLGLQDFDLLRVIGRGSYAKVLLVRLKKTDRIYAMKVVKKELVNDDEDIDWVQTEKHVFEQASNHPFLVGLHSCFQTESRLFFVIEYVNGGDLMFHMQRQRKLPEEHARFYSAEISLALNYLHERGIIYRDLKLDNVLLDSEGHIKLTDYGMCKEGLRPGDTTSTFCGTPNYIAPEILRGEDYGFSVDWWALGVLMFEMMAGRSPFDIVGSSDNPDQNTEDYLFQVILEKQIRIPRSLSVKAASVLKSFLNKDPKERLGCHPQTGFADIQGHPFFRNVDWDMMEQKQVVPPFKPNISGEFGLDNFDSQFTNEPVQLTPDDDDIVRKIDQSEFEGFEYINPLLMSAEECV
UniProt Q9H093, sequence (whole entry, looked up): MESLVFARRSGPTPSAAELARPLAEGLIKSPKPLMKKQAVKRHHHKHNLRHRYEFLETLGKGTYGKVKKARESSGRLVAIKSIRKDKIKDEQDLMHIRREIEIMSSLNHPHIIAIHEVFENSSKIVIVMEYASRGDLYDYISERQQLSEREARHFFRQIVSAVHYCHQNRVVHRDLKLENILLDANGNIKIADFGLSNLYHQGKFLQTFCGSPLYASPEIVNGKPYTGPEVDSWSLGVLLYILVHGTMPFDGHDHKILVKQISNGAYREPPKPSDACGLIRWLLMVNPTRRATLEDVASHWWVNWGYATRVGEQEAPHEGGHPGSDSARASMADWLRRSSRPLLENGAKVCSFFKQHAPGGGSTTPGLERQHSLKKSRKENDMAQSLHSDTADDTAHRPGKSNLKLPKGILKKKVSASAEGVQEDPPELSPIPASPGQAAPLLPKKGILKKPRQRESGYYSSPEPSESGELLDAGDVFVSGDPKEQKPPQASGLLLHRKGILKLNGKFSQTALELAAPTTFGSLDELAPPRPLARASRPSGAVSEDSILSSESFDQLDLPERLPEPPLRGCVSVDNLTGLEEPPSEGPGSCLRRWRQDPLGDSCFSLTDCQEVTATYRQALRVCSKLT
UniProt P29323, sequence (whole entry, looked up): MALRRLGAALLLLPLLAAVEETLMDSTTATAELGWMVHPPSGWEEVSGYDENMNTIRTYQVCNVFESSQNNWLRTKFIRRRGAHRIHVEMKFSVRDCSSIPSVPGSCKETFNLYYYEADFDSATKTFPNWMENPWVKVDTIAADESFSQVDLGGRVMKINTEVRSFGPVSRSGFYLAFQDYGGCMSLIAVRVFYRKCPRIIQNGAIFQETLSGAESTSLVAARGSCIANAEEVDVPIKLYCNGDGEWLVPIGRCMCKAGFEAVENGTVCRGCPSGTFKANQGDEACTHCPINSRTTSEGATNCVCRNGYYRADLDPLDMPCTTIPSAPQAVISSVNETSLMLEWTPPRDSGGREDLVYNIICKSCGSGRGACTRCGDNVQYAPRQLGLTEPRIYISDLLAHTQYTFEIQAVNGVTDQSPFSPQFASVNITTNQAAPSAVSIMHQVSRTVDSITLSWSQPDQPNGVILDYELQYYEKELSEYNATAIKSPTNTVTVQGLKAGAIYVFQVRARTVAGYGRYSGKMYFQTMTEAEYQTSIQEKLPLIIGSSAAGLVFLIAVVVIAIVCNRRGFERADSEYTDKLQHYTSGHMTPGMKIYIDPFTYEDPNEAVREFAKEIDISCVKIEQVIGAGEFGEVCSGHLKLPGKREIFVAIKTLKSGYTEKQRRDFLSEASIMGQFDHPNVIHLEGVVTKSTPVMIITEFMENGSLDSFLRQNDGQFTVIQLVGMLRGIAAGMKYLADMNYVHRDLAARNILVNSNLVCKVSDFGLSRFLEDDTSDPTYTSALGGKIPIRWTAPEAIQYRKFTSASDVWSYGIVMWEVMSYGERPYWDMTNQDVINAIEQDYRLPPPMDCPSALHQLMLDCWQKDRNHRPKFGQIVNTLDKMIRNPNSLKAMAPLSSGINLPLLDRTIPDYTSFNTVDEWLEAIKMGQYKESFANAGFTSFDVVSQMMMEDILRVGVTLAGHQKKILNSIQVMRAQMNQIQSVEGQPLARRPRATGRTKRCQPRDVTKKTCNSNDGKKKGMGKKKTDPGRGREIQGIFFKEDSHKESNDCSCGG
UniProt P30048, sequence (whole entry, looked up): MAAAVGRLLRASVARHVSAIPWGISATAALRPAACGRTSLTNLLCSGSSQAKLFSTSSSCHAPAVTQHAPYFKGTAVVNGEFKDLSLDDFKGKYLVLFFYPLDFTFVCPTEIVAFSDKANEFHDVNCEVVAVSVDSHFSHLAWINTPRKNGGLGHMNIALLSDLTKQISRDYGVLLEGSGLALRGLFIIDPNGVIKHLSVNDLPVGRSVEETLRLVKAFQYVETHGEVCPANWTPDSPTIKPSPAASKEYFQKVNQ

SMILES	target or system	test	system	conditions	scale	measurement	result
CC(C)C[C@@H]1NC(=O)[C@@H]2CSSC[C@@H](C(=O)NCC(=O)O)NC(=O)[C@H](Cc3ccccc3)NC(=O)CNC(=O)[C@H](CC(N)=O)NC(=O)[C@@H]3CCCN3C(=O)CNC(=O)[C@@H]3CSSC[C@H](NC(=O)[C@H](CCCNC(=N)N)NC(=O)[C@H](CCC(N)=O)NC(=O)[C@H](CCCNC(=N)N)NC(=O)[C@H](CCCCN)NC(=O)[C@H](C(C)C)NC(=O)[C@H](C)NC(=O)[C@H](CC(N)=O)NC(=O)[C@H](CO)NC(=O)[C@H](C)NC(=O)[C@H](CCCNC(=N)N)NC(=O)[C@@H](NC(=O)CN)CSSC[C@H](NC(=O)CNC(=O)[C@H](C)NC1=O)C(=O)N[C@@H](C(C)C)C(=O)N3)C(=O)N[C@@H](CCCCN)C(=O)N[C@@H](CCC(N)=O)C(=O)N[C@@H](CC(=O)O)C(=O)N[C@@H](CO)C(=O)N[C@@H](CC(=O)O)C(=O)N2	LRP6 E1 domain	binding, SPR		pH 7.5		Kd	0.0212 µM
CC(=O)N[C@@H](Cc1ccc(O)cc1)C(=O)N[C@@H](CC(N)=O)C(=O)N1CCC[C@H]1C(=O)N[C@@H](Cc1ccccc1)C(=O)N[C@@H](CCC(=O)O)C(=O)N[C@@H](CCC(=O)O)C(=O)NCC(=O)NCC(N)=O	EH domain-containing protein 1, EH domain (Homo sapiens, UniProt Q9H4M9)	binding, isothermal titration calorimetry		20 °C, 0 mM NaCl		Kd	5.6 ± 0.6 µM
CC(=O)N[C@@H](CCC(=O)O)C(=O)N[C@@H](CCC(=O)O)C(=O)N[C@@H](CCC(=O)O)C(=O)N[C@@H](Cc1c[nH]c2ccccc12)C(=O)N[C@@H](C)C(=O)N[C@@H](CCCNC(=N)N)C(=O)N[C@@H](CCC(=O)O)C(=O)N[C@@H](CC(C)(C)C)C(=O)NCC(=O)N[C@@H](C)C(=O)N[C@@H](CCC(N)=O)C(=O)N[C@@H](CC(C)C)C(=O)N[C@@H](CCCNC(=N)N)C(=O)N[C@@H](CCCNC(=N)N)C(=O)N[C@@H](C)C(=O)N[C@@H](C)C(=O)N[C@@H](CC(=O)O)C(=O)N[C@@H](CC(=O)O)C(=O)N[C@@H](CC(C)C)C(=O)N[C@@H](CC(N)=O)C(=O)N[C@@H](C)C(=O)N[C@@H](CCC(N)=O)C(=O)N[C@@H](Cc1ccc(O)cc1)C(=O)N[C@@H](CCC(=O)O)C(=O)N[C@@H](CCCNC(=N)N)C(=O)N[C@@H](CCCNC(=N)N)C(=O)N[C@@H](CCCNC(=N)N)C(N)=O	Induced myeloid leukemia cell differentiation protein Mcl-1 homolog, residues 152-308 (Mus musculus, UniProt P97287)	binding, SPR		0.2% DMSO		Kd	0.007 µM
CS(C)(=O)=Nc1ccc(-c2ccc(-c3nc4cc(O[C@@H]5CO[C@H]6[C@@H]5OC[C@H]6O)[nH]c4cc3F)cc2)cc1	EPHB2 (Homo sapiens, UniProt P29323)	enzyme activity, inhibitor		10 µM		inhibition	9%
CC[C@H](C)[C@H](NC(=O)[C@H](CO)NC(=S)Nc1ccc2c(c1)C(=O)OC21c2ccc(O)cc2Oc2cc(O)ccc21)C(=O)N[C@@H](CCC(=O)O)C(=O)N[C@@H](CCCCN)C(=O)NCC(=O)NCC(=O)N[C@@H](CCP(=O)(O)O)C(=O)N[C@@H](CC(C)C)C(=O)N1CCC[C@H]1C(=O)N[C@@H](CCCCN)C(=O)N[C@H](C(=O)N[C@@H](Cc1c[nH]c2ccccc12)C(=O)N[C@@H](CC(C)C)C(=O)N[C@H](C(=O)N1CCC[C@H]1C(=O)N[C@@H](CCCNC(=N)N)C(=O)O)C(C)C)C(C)C	YWHAZ	binding, fluorescence anisotropy		pH 7.5, FITC-labelled phosphopeptide titration		Kd	82.8 µM
CC(=O)N[C@@H](CCCNC(=N)N)C(=O)N[C@H](C(=O)N1CCC[C@H]1C(=O)N[C@@H](COP(=O)(O)O)C(=O)N[C@@H](CC(C)C)C(=O)N1CCC[C@H]1C(=O)N[C@H](C(=O)N1CCC[C@H]1C(c1ccccc1)c1ccccc1)[C@@H](C)O)[C@@H](C)O	YWHAZ	isothermal titration calorimetry		first duplicate		Kd	5.35 ± 0.38 µM
O=C(N[C@@H]1c2ccccc2C[C@H]1N1CCCC1)c1ccc(-c2ccnc3[nH]ccc23)nc1	NUAK2 (Homo sapiens, UniProt Q9H093)	binding, competition with immobilised ligand				Kd	0.078 µM
CC[C@H](C)[C@@H]1NC(=O)[C@@H]2CCCN2C(=O)[C@H](Cc2c[nH]c3ccccc23)NC(=O)[C@H](CO)NC(=O)[C@H](Cc2c[nH]c3ccccc23)NC(=O)[C@H](CC(N)=O)NC(=O)[C@H](CCCCN)NC(=O)[C@H](CCSC)NC(=O)[C@@H]2CSCCC(=O)N3CN(CN(C3)C(=O)CCSC[C@H](NC(=O)[C@H](C)N)C(=O)N3CCC[C@H]3C(=O)N[C@@H](Cc3ccccc3)C(=O)NCC(=O)N2)C(=O)CCSC[C@@H](C(=O)N[C@H](C(=O)N[C@@H](CC(N)=O)C(=O)N[C@@H](CCCCN)C(=O)N(C)CC(=O)N(C)CC(=O)N(C)CC(=O)N(C)CC(=O)N(C)CC(=O)N(C)CC(=O)N[C@@H](CCCCNC(=O)c2ccc(C(=O)O)c(-c3c4ccc(=O)cc-4oc4cc(O)ccc34)c2)C(N)=O)[C@@H](C)O)NC(=O)[C@H](Cc2c[nH]c3ccccc23)NC1=O	Nectin-1 (NECTIN1, Homo sapiens, UniProt Q15223)	fluorescence polarization				Kd	> 2 µM
CC(C)C[C@H](NC(=O)[C@H](CCCCN)NC(=O)CNC(=O)[C@H](Cc1ccccc1)NC(=O)[C@H](CO)NC(=O)[C@H](Cc1c[nH]c2ccccc12)NC(=O)CNC(=O)[C@H]1CCCN1C(=O)[C@H](N)CC(=O)O)C(=O)N[C@@H](Cc1c[nH]cn1)C(=O)N[C@@H](Cc1c[nH]c2ccccc12)C(=O)N1CCC[C@H]1C(=O)O	VSIR (Homo sapiens, UniProt Q9H7M9)	binding, microscale thermophoresis				Kd	0.01 µM
CC(=O)NC1C(O)OC(CO)C(OC2OC(CO)C(OC3OC(CO)C(O)C(O)C3O)C(O)C2O)C1O (stereo not drawn)	sly (Streptococcus suis, UniProt Q55996)	binding				Kd	0.4 µM
CCC1CC(=O)N[C@@H](CC(=O)O)C(=O)N2CC(CCO)C[C@H]2C(=O)N[C@@H](CCC(=O)O)C(=O)N[C@@H]([C@@H](C)O)C(=O)NCC(=O)N[C@@H](CCC(=O)O)C(=O)N1 (stereo partly drawn)	KEAP1 (Homo sapiens, UniProt Q14145)	binding, MST				Kd	0.0198 µM
CC=C1CN2CCc3c([nH]c4ccccc34)C2CC1C(=COC)C(=O)OC (stereo not drawn)	PRDX3 (Homo sapiens, UniProt P30048)	binding, SPR				Kd	21.8 µM
CC(C)C[C@H](NC(=O)[C@@H](NC(=O)c1ccc2c(c1)C(=O)OC21c2ccc(N(C)C)cc2Oc2cc(N(C)C)ccc21)C(C)C)C(=O)N[C@@H](Cc1ccc(O)cc1)C(=O)N[C@@H](C)C(=O)N[C@@H](CO)C(=O)N[C@H](C(=O)N[C@@H](CC(N)=O)C(=O)N1CCC[C@H]1C(=O)N[C@@H](CCC(=O)O)C(=O)N[C@@H](Cc1ccc(OP(=O)(O)O)cc1)C(=O)N[C@@H](Cc1ccccc1)C(=O)N[C@@H](CO)C(=O)N[C@@H](C)C(=O)N[C@@H](C)C(=O)N[C@@H](CC(=O)O)C(=O)N[C@H](C(=O)N[C@@H](Cc1ccc(O)cc1)C(=O)N[C@@H](CC(=O)O)C(=O)O)C(C)C)C(C)C	Tyrosine-protein kinase ZAP-70, SH2 domains (ZAP70, Homo sapiens, UniProt P43403)	binding				Kd	0.806 µM
CC(C)C[C@H](NC(=O)CNC(=O)[C@H](C)NC(=O)[C@H](CC(=O)O)NC(=O)[C@H](CC(=O)O)NC(=O)[C@H](C)NC(=O)[C@@H]1CCCN1C(=O)[C@H](CCCCN)NC(=O)CNC(=O)[C@H](C)NC(=O)[C@@H]1CCCN1C(=O)[C@@H]1CCCN1C(=O)[C@H](CCC(=O)O)NC(=O)CN)C(=O)N[C@H](C(=O)O)C(C)C	F-box only protein 22	binding, SPR				Kd	24 µM
CC(C)(C)C(=O)OCOP(=O)(OCOC(=O)C(C)(C)C)C1CCCN(O)C1=O (stereo not drawn)	SN12C					TGI	14.1 µM
COc1ccccc1-c1n[nH]c2nc(NC3CCN(C(=O)Cc4ccc(F)cc4F)CC3)ncc12		bead binding, competition bead pull-down, measured: LINJ.32.3110	Leishmania donovani axenic amastigote extract	10 µM	reference: vehicle	relative abundance	1.05
CCCCCCCCCCCCCCCCOC[C@H](COP(=O)([O-])OCC[N+](C)(C)C)OC(C)=O	Cyclic AMP-dependent transcription factor ATF-3 (ATF3, Homo sapiens, UniProt P18847)	binding				Kd	3.24 µM
O=C1NC2(CC2)COc2ncc(F)cc2[C@H]2COCCN2c2ccn3ncc1c3n2			Sprague-Dawley rat, female, uterus	oral, 10 mg/kg/day, 4 weeks dosing, end of recovery		organ-to-brain weight ratio	24.2 ± 3.68%
Cc1cc(C(=O)Nc2nc3cccc(C)c3n2[C@H]2CCCCN(C(=O)/C=C/CN(C)C)C2)ccn1	Trypanosoma brucei	propidium iodide flow cytometry, measured: G1 phase	bloodstream CLK1 over-expression uninduced	concentration not given		cell cycle distribution	15.3% and 14.8% and 20.9%
CC(C)C[C@@H]1NC(=O)[C@@H]2CSSC[C@@H](C(=O)NCC(=O)O)NC(=O)[C@H](Cc3ccccc3)NC(=O)CNC(=O)[C@H](CC(N)=O)NC(=O)[C@@H]3CCCN3C(=O)CNC(=O)[C@@H]3CSSC[C@H](NC(=O)[C@H](CCCNC(=N)N)NC(=O)[C@@H]4CCCN4C(=O)[C@H](CCCNC(=N)N)NC(=O)[C@H](CCCCN)NC(=O)[C@H](C(C)C)NC(=O)[C@H](C(C)C)NC(=O)[C@H](CC(N)=O)NC(=O)[C@H](C(C)C)NC(=O)[C@H](CO)NC(=O)[C@H](CCC(N)=O)NC(=O)[C@@H](NC(=O)CN)CSSC[C@H](NC(=O)CNC(=O)[C@H](C)NC1=O)C(=O)N[C@@H](C(C)C)C(=O)N3)C(=O)N[C@@H](CCCCN)C(=O)N[C@@H](CCC(N)=O)C(=O)N[C@@H](CC(=O)O)C(=O)N[C@@H](CO)C(=O)N[C@@H](CC(=O)O)C(=O)N2	LRP6 E1 domain	binding, SPR		pH 7.5		Kd	0.0592 µM
CC(C)[C@H]1NC(=O)C[C@H]2/C=C/CCSSC[C@@H](NC1=O)C(=O)N[C@H](Cc1cccc3ccccc13)C(=O)NCC(=O)O2	PRKCI (Homo sapiens, UniProt P41743)	enzyme activity, inhibitor		10 µM		inhibition	3.4%
C#CCN1C(=O)C(CC#C)(C(=O)OCC)Oc2ccccc21 (stereo not drawn)	Acetolactate synthase catalytic subunit, mitochondrial (Saccharomyces cerevisiae S288c, UniProt P07342)	binding, MST				Kd	133 µM
CC(=O)N[C@@H](CCCNC(=N)N)C(=O)N[C@H](C(=O)N1CCC[C@H]1C(=O)N[C@@H](COP(=O)(O)O)C(=O)N[C@@H](CC(C)C)C(=O)N1CCC[C@H]1C(=O)N[C@H](C(=O)N1CCC[C@H]1C(c1ccccc1)c1ccccc1)C(C)C)[C@@H](C)O	YWHAZ	isothermal titration calorimetry		first duplicate		Kd	2.23 ± 0.74 µM
CC(C)C[C@H](NC(=O)CNC(=O)[C@H](C)NC(=O)[C@H](CC(=O)O)NC(=O)[C@H](CC(=O)O)NC(=O)[C@H](C)NC(=O)[C@@H]1CCCN1C(=O)[C@H](CCCCN)NC(=O)CNC(=O)[C@@H]1CCCN1C(=O)[C@@H]1CCCN1C(=O)[C@@H]1CCCN1C(=O)[C@H](CCC(=O)O)NC(=O)[C@H](C)N)C(=O)N[C@H](C(=O)O)C(C)C	F-box only protein 22	binding, SPR				Kd	29 µM

For quick reference, copied from above:
SMILES	target or system	test	system	conditions	scale	measurement	result
CC=C1CN2CCc3c([nH]c4ccccc34)C2CC1C(=COC)C(=O)OC (stereo not drawn)	PRDX3 (Homo sapiens, UniProt P30048)	binding, SPR				Kd	21.8 µM
